Earlier results, collected from citations in different studies.
± gives the spread as reported.

The IC50 of COC1CC(=O)C2(CO)C3CCC4(C)C(C(C)C5CC(C)=C(CO)C(=O)O5)CCC4C3CC3OC32C1O (stereo not shown) is reported as 8.43 µM (Hs-578T; cell growth).
For CCN(CC)c1ccc2c(c1)Oc1cc(N(CC)CC)ccc1C21c2ccccc2C(=O)N1N=Cc1ccnc(-c2cc(C)ccn2)c1.Cc1c(C)c(-c2ccc(-c3ccccc3)cc2)[c-](C)c1C.F[P-](F)(F)(F)(F)F.[Cl-].[Ir+3], the IC50 was 4.2 ± 0.2 µM (HeLa cancer cells).
CCC1=C(O)c2c(oc(-c3cc4ccccc4s3)cc2=O)C(CC)(CC)C1=O gave an IC50 of 3.81 µM (PC-3; cell growth, SRB).
For CC1=CC(C)=[N+]2C1=C(CO)c1c(C)cc(C)n1[B-]2(C)C, the IC50 was 0.17 ± 0.001 µM (HCT-116; cell viability; white lamp irradiation).
CN(CCOCCOCCOCCNc1cccc2c1C(=O)N(C1CCC(=O)NC1=O)C2=O)CC[C@H](CSc1ccccc1)Nc1ccc(S(=O)(=O)NC(=O)c2ccc(N3CCN(CC4=C(c5ccc(Cl)cc5)CCC(C)(C)C4)CC3)cc2)cc1S(=O)(=O)C(F)(F)F (stereo partly shown) gave an IC50 of 0.025 µM (NCI-H146).
The IC50 of O=C(/C=C/c1ccc(O)c(O)c1)NCCc1ccc(O)cc1 is reported as 12.8 ± 1.61 µM (RAW264.7; nitric oxide production; 24 h, together with: LPS 100 ng/mL).
CCCCn1cc(C(=O)O)c(=O)c2cc(F)c(Nc3cccc(Cl)c3)c(N)c21 gave an IC50 of < 50 µM (PANC-1).
The IC50 of CC1=C(CO)C(=O)O[C@@H]([C@@H](C)[C@H]2CC[C@H]3[C@@H]4C[C@H]5O[C@]56[C@@H](O)C=CC(=O)[C@]6(C)[C@H]4CC[C@]23C)C1 is reported as 1.19 µM (Hs-578T; cell growth).
The IC50 of COc1ccc(-c2nnc(Nc3ccc(-c4ccccc4)s3)s2)cc1 is reported as < 10 µM (B16-F10).
For O=C1OCC2=C1C(c1cccc([N+](=O)[O-])c1)C1=C(N2)C(=O)c2ccccc2C1=O (stereo not shown), the IC50 was < 0.039 µM (SK-LU-1 cells; cell growth).
With Oc1cccc(-c2cccc(O)n2)n1.[Cl-].[Cl-].[Ru+2].c1cnc2c(c1)ccc1cccnc12.c1cnc2c(c1)ccc1cccnc12 the IC50 was 83 µM (MDA-MB-231; cell viability; together with: blue light 450 nm, 1 h).
O=C1c2ccccc2NC(c2ccc(Cl)c([N+](=O)[O-])c2)N1/N=C/c1ccc(Cl)c([N+](=O)[O-])c1 (stereo not shown) gave an IC50 of > 1000 µM (human renal tubule TH-1; cytotoxicity).
N#CC1=C(N)Nc2c(ccc3[nH]c4ccccc4c23)C12C(=O)N(Cc1cn(Cc3ccc(Cl)cc3)nn1)c1ccc(Br)cc12 (stereo not shown) gave an IC50 of 3.83 µM (HeLa; cell growth).
c1ccc2c(-c3nnc(-c4c[nH]c5ccccc45)o3)c[nH]c2c1 has an IC50 of 0.02 µM (HeLa).
The IC50 of O=C(N/N=C\c1c(Cl)[nH]c2ccccc12)Nc1cccc(Br)c1 is reported as 1.43 to 5.48 µM (four cancer cell lines; cancer cell growth; range over cell lines).
[Cl-].[Cl-].[Ru+2].c1ccc(-c2ccccn2)nc1.c1ccc(-c2ccccn2)nc1.c1cnc2c(c1)ccc1cccnc12 gave an IC50 of > 100 µM (HT-29; light irradiation).
For CC1=C(C)C(=O)OC(C(C)(O)C2CCC3C4CC5OC56C(O)C=CC(=O)C6(C)C4CCC32C)C1 (stereo not shown), the IC50 was 1.23 µM (K-562R; cell growth).
With CCC1=C(O)c2c(oc(-c3cccc4ccccc34)cc2=O)C(CC)(CC)C1=O the IC50 was 1.03 µM (PC-3; cell growth, SRB).
O=C1OCC2=C1C(c1ccccc1[N+](=O)[O-])C1=C(N2)C(=O)c2ccccc2C1=O (stereo not shown) has an IC50 of > 2.5 µM (MCF7 cells; cell growth).

Excerpt of the above:
The IC50 of COC1CC(=O)C2(CO)C3CCC4(C)C(C(C)C5CC(C)=C(CO)C(=O)O5)CCC4C3CC3OC32C1O (stereo not shown) is reported as 8.43 µM (Hs-578T; cell growth).
O=C1OCC2=C1C(c1ccccc1[N+](=O)[O-])C1=C(N2)C(=O)c2ccccc2C1=O (stereo not shown) has an IC50 of > 2.5 µM (MCF7 cells; cell growth).
For CC1=CC(C)=[N+]2C1=C(CO)c1c(C)cc(C)n1[B-]2(C)C, the IC50 was 0.17 ± 0.001 µM (HCT-116; cell viability; white lamp irradiation).
